Assay results from different studies.

Structure (SMILES) | organism | test | test system | setting | MIC
CN[C@@H]1[C@H](O)[C@H](NC)[C@H]2O[C@]3(O)[C@H](O[C@@H]2[C@H]1O)O[C@H](C)C[C@H]3NC(=O)Cc1ccc(Cl)cn1 | Mycobacterium marinum | microbial growth | ATCC927 |  | 1.6 to 3.1 µg/mL
Cc1ccc(-c2nc3ccc(C)cn3c2CC(=O)NCc2ccc(N(C)C)cc2)cc1 | Mycobacterium marinum | microbial growth |  | 5 days | > 50 µM
CC[C@H](C)[C@H](NC(=O)CNC(=O)[C@H](CC(=O)O)NC(=O)[C@H](CCCNC(=N)N)NC(=O)[C@@H](NC(=O)[C@H](Cc1c[nH]cn1)NC(=O)[C@H](CCC(N)=O)NC(=O)CNC(=O)[C@@H](NC(=O)[C@H](CCCNC(=N)N)NC(=O)[C@H](CCC(=O)O)NC(=O)[C@@H](NC(=O)[C@H](CCCCN)NC(=O)[C@H](CCCCN)NC(=O)[C@H](Cc1ccccc1)NC(=O)[C@@H](NC(=O)[C@H](CCCCN)NC(=O)[C@H](Cc1c[nH]c2ccccc12)NC(=O)[C@@H](N)CCCCN)[C@@H](C)CC)[C@@H](C)CC)C(C)C)C(C)C)C(=O)N[C@H](C(=O)N[C@@H](CCCCN)C(=O)N[C@@H](C)C(=O)NCC(=O)N[C@@H](CO)C(=O)N[C@@H](C)C(=O)N[C@H](C(=O)N[C@@H](CCC(N)=O)C(=O)N[C@H](C(=O)N[C@H](C(=O)NCC(=O)N[C@@H](CCC(N)=O)C(=O)N[C@@H](C)C(=O)N[C@@H](C)C(=O)N[C@@H](C)C(=O)N[C@H](C(=O)N[C@@H](C)C(=O)N[C@@H](CCCCN)C(N)=O)[C@@H](C)CC)C(C)C)C(C)C)C(C)C)[C@@H](C)CC | Cryptococcus neoformans | resazurin broth microdilution |  | 36 h, 35 °C | ≤ 0.062 µM
CCC(CO)NCCNC(CC)CO.CCOc1cc(C=NNC(=S)Nc2cccc(Cl)c2)ccc1OC(=O)CN1C(=O)CSC1=O | Mycobacterium tuberculosis | growth in combination | H37Rv | added: reference drug at 1/2 MIC | 0.5 µg/mL
CN[C@@H]1[C@H](O)[C@H](NC)[C@H]2O[C@]3(O)[C@H](O[C@@H]2[C@H]1O)O[C@H](C)C[C@H]3NC(=O)Cc1cscn1 | Mycobacterium marinum | microbial growth | ATCC927 |  | 3.1 µg/mL
Cc1ccc(CNC(=O)C(=O)c2c(C)nc3ccc(C)cn23)cc1 | Mycobacterium marinum | microbial growth |  | 5 days | > 128 µM
CCOc1cc(/C=N/NC(=O)c2ccccn2)ccc1OC(=O)CN1C(=O)CSC1=O | Mycobacterium tuberculosis | Alamar blue | 192 |  | 0.565 µM
CN[C@@H]1[C@H](O)[C@H](NC)[C@H]2O[C@]3(O)[C@H](O[C@@H]2[C@H]1O)O[C@H](C)C[C@H]3NC(=O)Cc1ccccc1 | Proteus mirabilis | microbial growth, broth dilution | ATCC25933 |  | > 200 µg/mL
CC[C@H](C)[C@H](NC(=O)[C@H](CCCCN)NC(=O)[C@@H](NC(=O)[C@@H](NC(=O)[C@H](CC(C)C)NC(=O)[C@H](CCCNC(=N)N)NC(=O)[C@@H](NC(=O)[C@H](CC(C)C)NC(=O)[C@H](CCCNC(=N)N)NC(=O)CNC(=O)[C@H](Cc1ccccc1)NC(=O)[C@@H](N)CCCNC(=N)N)[C@@H](C)CC)[C@@H](C)CC)C(C)C)C(=O)N[C@@H](C)C(=O)N[C@@H](CCCNC(=N)N)C(=O)N[C@@H](CCCNC(=N)N)C(=O)N[C@@H](C)C(=O)N[C@@H](Cc1c[nH]cn1)C(=O)N[C@@H](CCCNC(=N)N)C(=O)N[C@@H](C)C(=O)N[C@@H](CCCNC(=N)N)C(=O)N[C@@H](CO)C(=O)N[C@@H](C)C(=O)N[C@H](C(=O)N[C@@H](CCCCN)C(=O)N[C@@H](C)C(=O)N[C@@H](C)C(=O)N[C@@H](CO)C(=O)N[C@@H](CC(N)=O)C(=O)N[C@H](C(=O)N[C@@H](C)C(=O)N[C@@H](C)C(=O)N[C@@H](CC(C)C)C(=O)N[C@@H](C)C(=O)N[C@@H](Cc1c[nH]cn1)C(=O)NCC(=O)N[C@@H](C)C(=O)O)C(C)C)C(C)C | Cryptococcus neoformans | resazurin broth microdilution |  | 36 h, 35 °C | ≤ 0.064 µM
Cc1ccc(CNC(=O)Cc2c(C)nc3ccc(C)cn23)cc1 | Mycobacterium marinum | microbial growth |  | 5 days | > 50 µM
COc1cc(C=NNC(=O)c2ccncc2)ccc1OC(=O)CN1C(=O)CSC1=O.NNC(=O)c1ccncc1 | Mycobacterium tuberculosis | growth in combination | 192 | added: reference drug at 1/2 MIC | 0.0312 µg/mL
Cc1ccc2nc(C)c(CC(=O)NCc3ccc(N(C)C)cc3)n2c1 | Mycobacterium marinum | microbial growth |  | 5 days | > 50 µM
Nc1ccccc1C(=O)OCC#CCOC(=O)c1ccccc1N | Saccharomyces cerevisiae | microbial growth, broth dilution | S288C |  | > 128 µg/mL
CN[C@@H]1[C@H](O)[C@H](NC)[C@H]2O[C@]3(O)[C@H](O[C@@H]2[C@H]1O)O[C@H](C)C[C@H]3NC(=O)Cc1ccc(F)cn1 | Mycobacterium marinum | microbial growth | ATCC927 |  | 1.6 to 3.1 µg/mL
CCC(CO)NCCNC(CC)CO.O=C(CN1C(=O)CSC1=O)Oc1ccc(C=NNC(=O)c2ccccn2)cc1Br | Mycobacterium tuberculosis | growth in combination | H37Rv | added: reference drug at 1/2 MIC | 0.5 µg/mL
CN[C@@H]1[C@H](O)[C@H](NC)[C@H]2O[C@]3(O)[C@H](O[C@@H]2[C@H]1O)O[C@H](C)C[C@H]3NC(=O)Cc1ccccn1 | Mycobacterium marinum | microbial growth | ATCC927 |  | 1.6 to 3.1 µg/mL
NNC(=O)c1ccncc1.O=C(CN1C(=O)CSC1=O)Oc1ccc(C=NNC(=O)c2ccncc2)cc1 | Mycobacterium tuberculosis | growth in combination | H37Rv | added: reference drug at 1/2 MIC | 0.0156 µg/mL
